Published values gathered from unrelated publications.
Protocols differ between the studies behind these lines. Values joined by “and” are separate records of one study, mostly repeats; a detail may differ. ± marks the error that the study gave.

CCCCCCCOc1ccc(CC[C@](N)(CO)COP(=O)(O)O)cc1C(F)(F)F — AUCtau (healthy male humans, plasma; 0.5 mg amiselimod, day 1, mean): 17.3 ng·h/mL
F[C@@H]1[C@H](c2ccc(-c3cncnc3)cc2)[C@H](F)[C@H](F)C[C@@H]1F — hepatic clearance (hepatocyte stability; cryopreserved mouse hepatocytes; 1 µM): 51 mL/min/kg
COC(=O)[C@@]1(C)C=C(C(=O)Nc2cccc(C(=O)Nc3ccc(Nc4nccc(-c5cccnc5)n4)c(C)c3)c2)C(=O)CC1 — compound remaining (metabolic stability; Wistar rat, male, primary hepatocytes; 1 µM, 90 min): 1.4%
CCC1=[N+]2N=C(c3ccccc3)C(=O)O[B-]2(c2ccccc2)Oc2cc(N(CC)CC)ccc21 (stereo not drawn) — fluorescence emission maximum (toluene): 509 nm
O=C(CC(F)(F)F)Nc1ccc(C2CCCCC2)cc1 — hepatic clearance (liver microsome stability; dog liver microsomes; 1 µM): 28 mL/min/kg
COc1cccc(OC)c1-c1cc(C(=O)NC2(C(=O)O)C3CC4CC(C3)CC2C4)nn1-c1ccc(C(=O)NCCNC(=O)[C@H](CCCCNC(=O)[C@H](CC(C)C)NC(=O)C2OC2C(=O)O)NC(=O)CN2CCN(CC(=O)[O-])CCN(CC(=O)[O-])CCN(CC(=O)[O-])CC2)cc1C(C)C.[177Lu+3] (mixture of isomers) — tumour-to-kidney ratio (mouse, HT-29 xenograft; 4 h post injection, biodistribution; baseline: tumour over kidney uptake): 1.35
O=C(CN1CCCCC1)Nc1ccc([C@H]2[C@@H](F)[C@@H](F)C[C@@H](F)[C@H]2F)cc1 — hepatic clearance (dog liver microsomes; 1 µM): 23 mL/min/kg
COc1cccc(OC)c1-c1cc(C(=O)NC2(C(=O)O)C3CC4CC(C3)CC2C4)nn1-c1ccc(C(=O)N(C)CCCN(C)C(=O)[C@H](CCCCNC(=O)[C@H](CC(C)C)NC(=O)C2OC2C(=O)O)NC(=O)CN2CCN(CC(=O)[O-])CCN(CC(=O)[O-])CCN(CC(=O)[O-])CC2)cc1C(C)C.[177Lu+3] (mixture of isomers) — tissue uptake (mouse, HT-29 xenograft, spleen; 168 h post injection): 0.43 %ID/g
O=C(CN1CCOCC1)Nc1ccc(C2CCCCC2)cc1 — hepatic clearance (hepatocyte stability; cryopreserved mouse hepatocytes; 1 µM): 78 mL/min/kg
CC[C@H](C)[C@H](NC(=O)[C@H](CCC(N)=O)NC(=O)[C@@H](NC(=O)[C@@H]1CCCN1[C@@H]1CN(C(=O)[C@H](CCCCN)NC(=O)[C@H](CC(N)=O)NC(=O)[C@@H](NC(=O)[C@@H](NC(=O)[C@H](CCC(N)=O)NC(=O)[C@@H](N)C(C)C)[C@@H](C)CC)[C@@H](C)CC)CC[C@H]1NS(=O)(=O)c1ccc(C)cc1)C(C)C)C(=O)N[C@H](C(=O)N[C@@H](Cc1ccc(O)cc1)C(=O)N[C@@H](CCCCN)C(N)=O)C(C)C — helix content (CD spectroscopy; 20 mM phosphate buffer; 125 µM, 37 °C): 4.6%
C=CC(=O)Nc1cc(Nc2nccc(-c3cn(C)c4ccccc34)n2)c(OC)cc1N(C)CCNC — percentage recovery (storage stability; human plasma samples; 30 d, -80 °C, LQC level; baseline: nominal concentration): 17.9%
O=C(Nc1cnccc1-c1ccc([18F])cc1)c1ccnc(NC(=O)C2CC2)c1 — mean SUV (ex vivo gamma counting; GSK-3β transgenic mice, early-stage, left kidney; intravenous, 120 min, with: tariquidar 15 mg/kg iv): 0.83
N#CCNC(=O)c1ccc(C2CCCCC2)cc1 — hepatic clearance (liver microsome stability; dog liver microsomes; 1 µM): 29 mL/min/kg
CCCC[C@H](NC(=O)CNC(=O)CNC(=O)[C@H](CCCCNC(=O)[C@H](CCN)NC(=O)C(C)c1ccc(CC(C)C)cc1)NC(=O)CN1CCN(CC(=O)O)CCN(CC(=O)O)CCN(CC(=O)O)CC1)C(=O)N[C@H]1CC(=O)NCCCC[C@@H](C(N)=O)NC(=O)[C@H](Cc2c[nH]c3ccccc23)NC(=O)[C@H](CCCNC(=N)N)NC(=O)[C@@H](Cc2ccccc2)NC(=O)[C@H](Cc2c[nH]cn2)NC1=O (stereo partly drawn) [lutetium-177 labelled] — urinary excretion (C57 mouse, urine; 2 h): 41 ± 5.38%
CCCC[C@H](OC(C)=O)c1ccccc1C(=O)O — MRT(0-t) (Sprague-Dawley rats, both sexes, whole blood; intravenous, 1.25 mg/kg single dose): 2.4 ± 1 h
C=C[C@]1(C)C[C@@H](OC(=O)CSc2ccc(NC(=O)c3ccco3)cc2)[C@]2(C)[C@H](C)CC[C@]3(CCC(=O)[C@H]32)[C@@H](C)[C@@H]1O — plasma concentration (Mycoplasma gallisepticum-infected chickens, plasma; intramuscular, 40 mg/kg, 24 h): 1.81 ng/mL and 2.85 ng/mL and 7.31 ng/mL and 1.24 ng/mL
COc1ccc(-c2ccc([C@H]3[C@@H](F)[C@@H](F)C[C@@H](F)[C@H]3F)cc2)cc1OC — hepatic clearance (hepatocyte stability; cryopreserved rat hepatocytes; 1 µM): 30 mL/min/kg
C=C(NC(=O)c1csc(-c2nc3c(cc2O)-c2nc(cs2)C(=O)NC(C(C)O)C(=O)NC(=C(C)OC)c2nc(cs2)C(=O)NC2c4nc(cs4)C(=O)NC(COC(=O)c4c5c6c(cccc6n4O)COC(=O)C(OC4CC(C)(O)C(N(C)C)C(C)O4)C2OC5)c2nc-3cs2)n1)C(N)=O (stereo not drawn) — AUC(0-inf) (male Sprague-Dawley rats, plasma; intravenous infusion, 18 mg/kg): 5250 ng·h/mL

Excerpt of the above:
O=C(CC(F)(F)F)Nc1ccc(C2CCCCC2)cc1 — hepatic clearance (liver microsome stability; dog liver microsomes; 1 µM): 28 mL/min/kg
O=C(CN1CCOCC1)Nc1ccc(C2CCCCC2)cc1 — hepatic clearance (hepatocyte stability; cryopreserved mouse hepatocytes; 1 µM): 78 mL/min/kg
